Assay results pooled from the literature.
Each line is one published result; not all experiments were run side by side. ± marks the error that the study gave.

SMILES = C[C@H](Nc1ccc2c(c1)OCCn1cc(N3C(=O)OC[C@H]3C(F)F)nc1-2)C(N)=O; cell line = SNU-1076; assay = cell growth, CellTiter-Glo; setting = 120 h; IC50 = 370 nM
SMILES = O=C1NCCC12CCN(c1c(Cl)cncc1-c1ccc3cccnc3c1)CC2; cell line = 7dF3; assay = WNT reporter gene, inhibitor; IC50 = 1430 ± 760 nM
SMILES = Cc1c(C(=O)O)ccc2c3n(nc12)[C@@H]1[C@H](C3)N(CC2CC2)[C@@]2(C(=O)Nc3cc(Cl)ccc32)[C@H]1c1cccc(Cl)c1F; cell line = cancer cell lines; assay = cell viability, PRISM pooled screen; setting = 120 h, range across all lines; IC50 = 4.6 to 9800 nM
SMILES = COc1cc(C(=O)c2nc(-c3cccc4[nH]ccc34)c[nH]2)cc2c1OCO2; cell line = PC-3/TxR paclitaxel-resistant; assay = cell growth, MTS; setting = 72 h; IC50 = 1.9 ± 0.2 nM
SMILES = CCCCC[C@@H]1NC(=O)[C@@H]2CCCN2C(=O)[C@H](CC(=O)O)NC(=O)[C@H](Cc2ccc(O)cc2)NC(=O)[C@H](CO)NC(=O)[C@H]([C@@H](C)CC)NC(=O)[C@H](Cc2ccc(-c3ccccc3)cc2)NC(=O)[C@H](CC(C)C)NC(=O)[C@@H]2[C@@H](c3ccccc3)CCN2C(=O)[C@H](NC(=O)[C@H](CCCNC(=N)N)NC(=O)[C@H](CCCNC(=N)N)NC(C)=O)CSCSC[C@@H](C(=O)N[C@@H](CCCNC(=N)N)C(=O)N[C@@H](CCCNC(=N)N)C(N)=O)NC1=O; cell line = AsPC-1; assay = AlphaScreen, refers to: pERK; setting = 2 h; IC50 = 7000 nM
SMILES = Cc1[nH]c(/C=C2\C(=O)Nc3ccc(S(=O)(=O)N(C)c4cccc(Cl)c4)cc32)c(C)c1C(=O)N1CCN(C)CC1; cell line = Rh28 (alveolar rhabdomyosarcoma); assay = cell growth; setting = 3 days; IC50 = 4500 ± 1860 nM
SMILES = CCCCCN1C[C@H](O)[C@@H](O)[C@H](O)[C@@H]1CO; cell line = Sandhoff disease patient fibroblasts; assay = glycosphingolipid lowering, LC-MS/MS, refers to: four GlcCer isoforms; IC50 = 500 nM
SMILES = COc1cccc2c1C(=O)c1c(O)c3c(c(O)c1C2=O)C[C@@](O)(C(=O)CO)C[C@@H]3O[C@H]1C[C@H](N)[C@H](O)[C@H](C)O1; cell line = KBv200 ABCB1-overexpressing; IC50 = 1430 ± 102 nM
SMILES = CN(Cc1cnc2nc(N)nc(N)c2n1)c1ccc(C(=O)N[C@@H](CCC(=O)O)C(=O)O)cc1; cell line = NMP-derived lumbar spinal cord tissues; assay = neural rosette emergence; IC50 = 610 nM
SMILES = CCCN1CCN(c2cccc(-c3cnccc3N3CCCC4(CCNC4=O)C3)c2)CC1 (stereo not drawn); cell line = 7dF3; assay = WNT reporter gene, inhibitor; IC50 = > 5000 nM
SMILES = Cc1cccc(-c2[nH]c(CNc3ccccc3F)nc2-c2ccc3ncnn3c2)n1; cell line = MM1.S, pomalidomide-resistant; assay = cell viability, XTT; IC50 = ~1500 nM
SMILES = COc1ccc(F)cc1C(=O)NCc1ccc(-c2nn([C@@H](C)C(F)(F)F)c(N)c2C(N)=O)cc1; cell line = Rec1; assay = refers to: IL-10; setting = 24 h; IC50 = 3.2 ± 0.9 nM
SMILES = Nc1ccn([C@@H]2O[C@H](CO)[C@@H](O)C2(F)F)c(=O)n1; cell line = SW1990; assay = cell viability, MTT; setting = mutant KRAS spleen metastasis; IC50 = 6 nM
SMILES = CCCCN1C[C@H](O)[C@@H](O)[C@@H](O)[C@H]1CO; cell line = sample E patient fibroblasts; assay = GlcCer level lowering, LC-MS/MS, refers to: GlcCer d18:1/16:0; setting = 216 h; IC50 = 22200 nM
SMILES = Cc1c(C)n(-c2c(C(C)C)cccc2C(C)C)c(=[Se])n1-c1c(C(C)C)cccc1C(C)C; cell line = H157 lung carcinoma cells; assay = cell viability, MTT; setting = 72 h; IC50 = > 10000 nM
SMILES = CC1(C)CC(=O)C2=C(C1)Oc1ccc(Cl)cc1C2n1nnc2ccccc21 (stereo not drawn); cell line = 3T3-L1 mature adipocytes; assay = MTT; setting = 72 h; IC50 = 100 to 1000 µg/mL
SMILES = CCn1ncc2c1-c1cnc(N)c(c1)O[C@H](C)c1cc(F)ccc1-c1nn(C)nc1C2; cell line = Ba/F3, EGFR L858R/T790M/C797S; assay = cell viability; IC50 = > 10000 nM
SMILES = CCCCN1C[C@H](O)[C@@H](O)[C@H](O)[C@H]1CO; cell line = Sandhoff disease patient fibroblasts; assay = glycosphingolipid lowering, LC-MS/MS, refers to: HexCer d18:0/22:0; IC50 = 5080 nM
SMILES = CC1(C)CCC(CN2CCN(c3ccc(C(=O)NS(=O)(=O)c4ccc(NCC5CCOCC5)c([N+](=O)[O-])c4)c(Oc4cnc5[nH]ccc5c4)c3)CC2)=C(c2ccc(Cl)cc2)C1; cell line = CD56+ NK cells from AML patients; assay = cell viability, high-throughput flow cytometry; IC50 = 5.73 nM
SMILES = COc1cc([C@@H]2c3cc4c(cc3[C@@H](O[C@@H]3O[C@@H]5CO[C@@H](C)O[C@H]5[C@H](O)[C@H]3O)[C@H]3COC(=O)[C@H]23)OCO4)cc(OC)c1O; cell line = untransduced HeLa; assay = CellTiter-Glo; setting = 48 h; IC50 = 2400 ± 300 nM
SMILES = CC[C@H](C)[C@@H]1NC(=O)[C@H](Cc2ccc(-c3ccccc3)cc2)NC(=O)[C@H](CC(C)C)NC(=O)[C@@H]2[C@@H](c3ccccc3)CCN2C(=O)[C@H](NC(=O)[C@@H](CCCNC(=N)N)NC(=O)[C@@H](CCCNC(=N)N)NC(C)=O)CSCSC[C@@H](C(=O)N[C@H](CCCNC(=N)N)C(=O)N[C@H](CCCNC(=N)N)C(N)=O)NC(=O)[C@H](C(C)C)NC(=O)[C@@H]2CCCN2C(=O)[C@H](CC(=O)O)NC(=O)[C@H](Cc2ccc(O)cc2)NC(=O)[C@](C)(CO)NC1=O; cell line = AsPC-1; assay = AlphaScreen, refers to: pERK; setting = 2 h; IC50 = 4000 nM

Repeated from above:
SMILES = Cc1c(C)n(-c2c(C(C)C)cccc2C(C)C)c(=[Se])n1-c1c(C(C)C)cccc1C(C)C; cell line = H157 lung carcinoma cells; assay = cell viability, MTT; setting = 72 h; IC50 = > 10000 nM
